Published values collected from several papers.
Each numbered part is a random draw from the data of one study; scales do not carry over between parts. Positions count from the first letter of the parent shown.

Study 1
Target: Sal-like protein 4, full length isoform A (SALL4, Homo sapiens, UniProt Q9UJQ4, residues 1-1053)
Sequence of UniProt Q9UJQ4 (whole entry, looked up): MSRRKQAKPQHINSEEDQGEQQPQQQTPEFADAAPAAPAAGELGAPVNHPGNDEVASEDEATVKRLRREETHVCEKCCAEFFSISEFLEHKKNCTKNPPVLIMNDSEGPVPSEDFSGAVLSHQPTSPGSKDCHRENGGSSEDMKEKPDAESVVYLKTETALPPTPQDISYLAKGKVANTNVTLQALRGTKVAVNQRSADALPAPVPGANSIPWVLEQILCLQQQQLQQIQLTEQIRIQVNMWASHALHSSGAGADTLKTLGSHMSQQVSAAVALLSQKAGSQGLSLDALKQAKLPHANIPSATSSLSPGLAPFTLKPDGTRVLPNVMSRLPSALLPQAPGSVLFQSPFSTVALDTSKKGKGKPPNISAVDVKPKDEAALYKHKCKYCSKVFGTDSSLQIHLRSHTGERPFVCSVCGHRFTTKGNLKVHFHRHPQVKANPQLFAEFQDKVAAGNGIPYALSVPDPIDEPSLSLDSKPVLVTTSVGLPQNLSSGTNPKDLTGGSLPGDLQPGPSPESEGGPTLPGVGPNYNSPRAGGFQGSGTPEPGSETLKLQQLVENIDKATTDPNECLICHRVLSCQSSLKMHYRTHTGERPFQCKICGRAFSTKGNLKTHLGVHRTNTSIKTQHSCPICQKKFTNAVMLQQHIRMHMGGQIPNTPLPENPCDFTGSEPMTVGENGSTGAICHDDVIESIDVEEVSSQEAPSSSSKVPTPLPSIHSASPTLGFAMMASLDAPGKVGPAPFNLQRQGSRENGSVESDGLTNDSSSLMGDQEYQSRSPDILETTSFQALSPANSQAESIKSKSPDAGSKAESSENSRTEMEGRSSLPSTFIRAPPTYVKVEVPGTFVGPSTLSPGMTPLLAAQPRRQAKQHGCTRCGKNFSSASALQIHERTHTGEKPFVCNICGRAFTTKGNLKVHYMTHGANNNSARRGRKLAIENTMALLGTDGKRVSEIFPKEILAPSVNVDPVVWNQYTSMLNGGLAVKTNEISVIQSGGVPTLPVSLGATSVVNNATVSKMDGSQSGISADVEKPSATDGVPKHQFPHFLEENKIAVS
Method: universal PBM
Form: double-stranded DNA, one strand shown
Sample: in vitro
Tested at: 600 nM
Notes: 8-mer, flanks averaged, mean of replicates
Reading: higher = stronger binding
Strand | E-score
GGCGGTAC | -0.162
CAGTCAGG | -0.147
GAATGATC | 0.17
CTGTGTGC | -0.157
GTGTGTCA | 0.158
AGCCTCGC | -0.23
ATTAAGGA | 0.188
ACGCTGGC | -0.318
CCAATCTC | 0.123
CTATACGA | 0.0621
CATTCAAG | -0.00455
TCAGTGAA | -0.0486
ACGTGGGG | -0.244
CTGAGATA | 0.165
AAACTAAA | 0.226
ATAAGATG | 0.181

Study 2
Target: Interferon regulatory factor 7, full length, phosphomimetic (IRF7, Homo sapiens, UniProt Q92985, residues 1-503, S471D/S472D/S475D/S476D/S477D/S483D/S484D/S487D)
Sequence of UniProt Q92985 (whole entry, unmodified, looked up): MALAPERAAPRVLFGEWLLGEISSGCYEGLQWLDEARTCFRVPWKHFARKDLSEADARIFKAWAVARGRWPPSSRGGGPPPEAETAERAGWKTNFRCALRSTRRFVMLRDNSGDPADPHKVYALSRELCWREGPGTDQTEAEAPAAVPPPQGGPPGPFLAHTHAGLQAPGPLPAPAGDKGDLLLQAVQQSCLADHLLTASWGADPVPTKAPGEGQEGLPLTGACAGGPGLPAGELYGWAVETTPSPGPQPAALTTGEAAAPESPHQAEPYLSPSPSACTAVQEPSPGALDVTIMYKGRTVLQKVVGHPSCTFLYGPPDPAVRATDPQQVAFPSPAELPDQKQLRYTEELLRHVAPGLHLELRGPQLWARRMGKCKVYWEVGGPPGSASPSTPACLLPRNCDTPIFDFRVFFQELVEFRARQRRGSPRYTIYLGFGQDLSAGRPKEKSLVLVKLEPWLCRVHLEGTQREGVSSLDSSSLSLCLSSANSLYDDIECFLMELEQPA
Method: protein-binding microarray
Form: double-stranded DNA, one strand shown
Sample: in vitro
Tested at: 2200 nM top
Notes: 60-bp whole probe
Together with: salmon DNA 0.4 mg/ml
Relative to: random background probes
Reading: higher = stronger binding
All sequences stand within: GCCTAGCAC … GTCTTGATTCGCTTGACGCTGCTG
Strand | fitted relative affinity [z-score]
TTAGGGTTCCTTTTCCTTTAGTGCTAG | 1.78
GACGGTTCCCTTTTCCTTACGTGCTAG | 2.9
GACGGCATCGACACTGGGGACGTGCTA | -0.747
TTATATATCGGGACTGGATTAGTGCTA | 0.283
GACGGACAGGACTATCGGGACGTGCTA | -0.994
TTAGGTATAGGACTGGGTTAGTGCTAG | -0.294
TTCACTTTCCAAAGCGTGAGGTGCTAG | 2.19
TTAGGTTTCGACATTCGGTTAGTGCTA | 4.98
GACGATATCAGTATGGAGACGTGCTAG | 0.0487
GACGGTTTCCTTACCCTGACGTGCTAG | 1.96
TTAAGAATGTTTTTCATTGTGTGCTAG | 0.0289
TCAGTGGTCTGTTTCTGACTGTGCTAG | 1.28
GACGATTCCAATTTCGAGACGTGCTAG | 1.79
GATGGTATTTGCCTGTGGTCGTGCTAG | 0.47
GACGGACCGGGTATCGGGACGTGCTAG | -1.01
TTAGGTATCGGTAGCGGTTAGTGCTAG | 0.00366
TTAGGTTTCCTTTTCCTTGAGTGCTAG | 5.42
TCACATGTGCCTTTATAACTGTGCTAG | 0.967

Study 3
Target: Ras GTPase-activating protein-binding protein 1, C-terminal RGG region (G3BP1, Homo sapiens, UniProt Q13283)
Sequence of UniProt Q13283 (whole entry, looked up): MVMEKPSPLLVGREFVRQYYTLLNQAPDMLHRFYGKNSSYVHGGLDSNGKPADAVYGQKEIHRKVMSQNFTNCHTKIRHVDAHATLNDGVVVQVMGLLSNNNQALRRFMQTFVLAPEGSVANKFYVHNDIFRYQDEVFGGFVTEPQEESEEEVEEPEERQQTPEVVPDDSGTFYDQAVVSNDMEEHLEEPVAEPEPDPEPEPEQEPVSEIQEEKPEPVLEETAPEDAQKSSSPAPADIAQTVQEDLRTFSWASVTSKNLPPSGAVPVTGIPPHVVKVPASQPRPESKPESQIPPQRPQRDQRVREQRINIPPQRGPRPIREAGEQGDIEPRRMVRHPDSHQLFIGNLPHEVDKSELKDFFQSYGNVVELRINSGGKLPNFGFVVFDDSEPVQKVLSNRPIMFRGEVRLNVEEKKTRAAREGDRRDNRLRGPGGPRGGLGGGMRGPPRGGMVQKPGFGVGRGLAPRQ
Method: RNA Bind-n-Seq
Form: RNA
Sample: in vitro
Tested at: 1 µM
Notes: whole 134-nt RNA, ends assumed
Together with: 150 mM KCl
Relative to: input library
Reading: higher = stronger binding
All sequences stand within: GGGAGUUCUACAGUCCGACGAUC … UGGAAUUCUCGGGUGUCAAGG
Strand | log2 enrichment
UACUCUCUCGGGGCUGGAAGCUUCCUGACUGAAGAUCUCUCUGCACUUGGGGUUCUUUCUAGAACAUUUUCUAGUCCCCCAACACCCUUU | 0.814
UCCUGUGCUACACAUCGUAUGUACCGAAUCAAAGUGUGUGUGUAAAGUGUGUGUGUAAAAAAGUAUUAUGUUACGCCGUUCGGAUCUGCA | -0.14
GUCCUGUGCUACACAUCGUAUGUACCGAAUCAAACCCCCCCAAACCCCCAAACCCAAAAAAGUAUUAUGUUACGCCGUUCGGAUCUGCAC | -0.827
GUCCUGUGCUACACAUCGUAUGUACCGAAUCGGAAAAAGGGAAAAAGGGAAAAAGGGGAAAGUAUUAUGUUACGCCGUUCGGAUCUGCAC | -0.914
CCUCAAGUCCUGUGCUACACAUCGUAUGUACCGAAUCGGCCGGGCCGGGCCGGAAAGUAUUAUGUUACGCCGUUCGGAUCUGCACUUCCA | -1.28
CUGUGCUACACAUCGUAUGUACCGAAUCGGAAAAAAAGGGGAAAAAAAGGGAAAAAAAGGGAAAGUAUUAUGUUACGCCGUUCGGAUCUG | -1.44
UGCCAUGGACAAUAUUACCAGGCAGAACCAAUUCUACGAUACCCAAGUCAUCAAACAAGAAAACGAGUCAGGCUACGAGAGGAGACCACU | -0.964
UCCUCAAGUCCUGUGCUACACAUCGUAUGUACCGAAUCGGAGGAGGUUUGGAAAGUAUUAUGUUACGCCGUUCGGAUCUGCACUUCCAGC | -1.36
GCAGGAAGUAAAAACAAAUGGAAAUGCUUCGGAUAGUGGCAGGGGUGGGGGUCGCUAAGGAAAGGGUGGGAUGGGAGUGGGUAAAGAGUU | 0.802
UCAAGUCCUGUGCUACACAUCGUAUGUACCGAAUCGGGAAAGGAAAGGAAAGGGAAAGUAUUAUGUUACGCCGUUCGGAUCUGCACUUCC | -1.44
UGCCUGCUCCGGGCCCCGUGCUGGCGCCUACGCACCUGCAGACAGAGCUGGUGCUGAGGUGCCAGAAGGAGACCGACUGUGACCUCUGUC | -1.19
UCCUGUGCUACACAUCGUAUGUACCGAAUCGGGGAAAAAGGGGAGGGGAAAAAAAGGGGAAAGUAUUAUGUUACGCCGUUCGGAUCUGCA | 1.15
GCAGGAAGUCAAAACAAAUGGAAAUGCUUCGGAUAGUGGCAGGGGUGGGGGUUGCUAAGGAAAGGGUGGGAUGGGAGUGGGUAAAGAGUU | 1.72
AACUAAUACUCUUAAAUGGUCUUUCAGUAUAGUGGUUCUUACGUAGUUUAACAUAGCUAUAAAUUGAGUUUAACAAUUUAUAAACUCAAG | -1.23

Study 4
Target: ABI1, truncated, D143A, DHFR fusion (Arabidopsis thaliana)
Method: DHFR PCA, deep sequencing
Sample: yeast
Notes: methotrexate growth selection, single substitutions
Together with: (+)-ABA 1.4 µM
Relative to: wild-type fitted maximum
Reading: higher = stronger binding
Starting sequence: PYL1, truncated, DHFR fusion (Arabidopsis thaliana); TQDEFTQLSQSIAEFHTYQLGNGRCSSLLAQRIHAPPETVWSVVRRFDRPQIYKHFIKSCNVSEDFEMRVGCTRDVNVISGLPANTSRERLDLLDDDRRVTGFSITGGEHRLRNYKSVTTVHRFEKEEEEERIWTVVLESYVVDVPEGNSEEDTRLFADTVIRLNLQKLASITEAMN; partner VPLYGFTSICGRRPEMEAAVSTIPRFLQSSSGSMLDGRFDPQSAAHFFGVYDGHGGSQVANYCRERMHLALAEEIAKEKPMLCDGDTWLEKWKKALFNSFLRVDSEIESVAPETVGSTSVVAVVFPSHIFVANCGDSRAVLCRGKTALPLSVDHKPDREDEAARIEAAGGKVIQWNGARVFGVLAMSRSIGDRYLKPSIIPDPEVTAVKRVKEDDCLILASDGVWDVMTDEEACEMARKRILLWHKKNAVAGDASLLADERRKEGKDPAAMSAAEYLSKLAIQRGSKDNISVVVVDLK
Variant | relative binding score [%]
G21L | 21.6
R98M | 36.8
T101K | 3.46
F5L | 74.7
I105V | 52.8
V44R | -15.9
T101G | -8.27
N165S | 9.65
A13N | 40.4
G102W | 12.3
F66N | 20.7
R163H | 13.2
E147K | 32.5
R74D | -2.44
F15G | -6.06
E151A | 66.1
D3Q | 53.4
F103C | 1.77
M176F | 6.81
L93Y | 35.8
Q19E | 77.7
Q2S | 65.3

Study 5
Target: RING finger protein unkempt homolog, zinc fingers 1-6, GST-SBP tag (UNK, Homo sapiens, UniProt Q9C0B0, residues 30-357)
Sequence of UniProt Q9C0B0 (30-357, looked up): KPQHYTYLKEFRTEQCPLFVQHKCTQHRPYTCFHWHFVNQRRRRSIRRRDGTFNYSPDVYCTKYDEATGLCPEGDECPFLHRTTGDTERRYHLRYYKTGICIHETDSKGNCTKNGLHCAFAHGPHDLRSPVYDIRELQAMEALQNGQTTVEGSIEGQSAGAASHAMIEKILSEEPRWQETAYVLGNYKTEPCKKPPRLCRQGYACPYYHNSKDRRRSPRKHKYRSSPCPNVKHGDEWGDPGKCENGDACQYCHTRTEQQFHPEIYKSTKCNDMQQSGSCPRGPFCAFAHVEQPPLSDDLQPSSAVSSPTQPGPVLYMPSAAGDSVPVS
Method: RNA Bind-n-Seq
Form: RNA
Sample: in vitro
Tested at: not given
Notes: RNA with constant flanks, human and mouse sites, ends assumed
Relative to: input RNA pool
Reading: higher = stronger binding
All sequences stand within: GGGAGUUCUACAGUCCGACGAUC … CAACAGAGGAUUGAGCAUCA
Strand | bound/input enrichment [ratio]
CCCUCUGUCUGUGACACCACCAUUCCUCUGCUGCCACCCUUUCAGGAAGUCUAUGGUUUUUAGUUUAAAUUAAAGGAAUUGUUACUGUGGUGGGAAUAUGAAAUAAAGGAAGAAAAGGCC | 1.74
UGGUGCCCAUGGCGGCCGCCCCGGAGCCCCACGAGACGGAGAAAAAGCCCUUCAAGCUCCUAGGUAUUUUAGAUGUUGAGAACACUCCAUGUGCUCGAGAAUCUAUACUCUAUGGCUCAU | 0.19
UUGUAGAUGGCAUUAUUUGGCUCAGAUUCAUCGUGCCUUGGGCAGAAUGAGGAAAUGUGUAUUAGACGCCUAACUACUGAGGUUCAUACUGAUUUGGUUGUCUUUGAUGGCUGUGACAUG | 0.261
AUCACUAAAUUCUGCUGUCAUCAAGAGCAGAUAUAUAGUAGUUGACUCAGUAAGUGUAAAUGCUCAGAAUAAGUUAAAUAUGUGGUUACAGUUUUUGUUUAACAUCCAGGUACAGCUAUG | 0.135
CACAUUAUCAAGGUUGGAAUUUAUCUUUUGGAAGCUGGCCUAGCAAAACUAGACUUCUUGAGUGAUGCAAAUUCAAGAAUGAAAAAGUUCAAUCAGCUCAUGAAGAAAGUAAUGGAAAAG | 0.272
GGUUUCCUGGCCUGUUGCAGCCAUGGUGCAUUGCAGUUGCGUGUUGUUCAGAAAGUAUGGAAAUUUCAUCGAUAAGCUAAGACUCUUCACCAGGGGAGGAUCCGGUGGAAUGGGUUAUCC | 0.125
CAUAUUACAAAAGAUGCUGCAUCUAAUGAAAUUCCAACAUUGACCAAAAAGGAGACAAUUUCUUUGCAAAUGGAAGAGUUUAAUACUGCAAUUUAUUCCAAUGAUGACUUACUUUCUUCU | 0.115
GUCAACUAUGAAGAAUUCGUACAGAUGAUGACUGCAAAAUGAAGACCUACUUUCAACUCCUUUUUCCCCCCUCUAGAAGAAUCAAAUUGAAUCUUUUACUUACCUCUUGCAAAAAAAAGA | 1.67
ACUUUUCCAGUAUUUUAGUGGACCCUGAAAUGUGUGUGAUGUGACAUUUGUCAUUUUCAUUAGCAAAAAAAGUUGUAUGAUCUGUGCCUUUUUUAUAUCUUGGCAGGUAGGAAUAUUAUA | 0.565
GAUUUUUAACUCCAGAAGCACUUUACGGGAUGGUACACUGACUAACAUAGAAGACAUUUCCAGGAGUUUGCCAGGGGUUCCUCACUAUGCUGGUACUAAAAGUAUAACCUCUUGGAGCCA | 0.228
AUUUUCUUACUGGCUAGAGUUCUUGGUGGAGAAGUUGCAUAUGGCCAAGUUCUUGGAGUUAUAGGAUAUUCAUUACUUCCUCUCAUUGUAAUAGCCCCUAUACUUUUGGUGGUUGGAUCU | 0.528
